Published values collected from several papers.
± marks the error that the study gave.

SMILES | test | test system | conditions | scale | endpoint | result
CCCC[C@H](NC(=O)[C@@H](NC(=O)[C@H](CC(=O)O)NC(=O)[C@H](CCC(N)=O)NC(=O)[C@H](CC(C)C)NC(=O)[C@H](CC(C)C)NC(=O)[C@H](CCCN)NC(=O)[C@H](CCCNC(=N)N)NC(=O)[C@H](C)NC(=O)[C@H](CO)NC(=O)[C@H](CC(C)C)NC(=O)[C@H](CCC(N)=O)NC(=O)[C@H](CC)NC(=O)[C@H](CC(C)C)NC(=O)[C@@H](NC(=O)[C@H](CCCN)NC(=O)[C@H](CCCNC(=N)N)NC(=O)[C@H](Cc1ccc(O)cc1)NC(=O)[C@H](CO)NC(=O)[C@H](CCC(N)=O)NC(=O)[C@@H](NC(=O)[C@H](Cc1ccccc1)NC(=O)[C@@H](NC(=O)[C@H](C)NC(=O)[C@H](CC(=O)O)NC(=O)[C@@H](C)NC(=O)CCc1ccc(O)cc1)[C@@H](C)CC)[C@@H](C)O)C(C)C)[C@@H](C)CC)C(=O)N[C@@H](CC(=O)O)C(=O)N[C@@H](CCCNC(=N)N)C(=O)NC | GH release | male rat, serum | subcutaneous, dose not given, 30 min | baseline: GHRH(1-29)NH2 | relative potency | 100
CC[C@H](C)[C@H](NC(=O)[C@H](CCCCN)NC(=O)[C@H](CC(N)=O)NC(=O)CNC(=O)[C@@H](NC(=O)[C@H](C)NC(=O)[C@H](CCCNC(=N)N)NC(=O)[C@H](CC(C)C)NC(=O)[C@H](CCCCN)NC(=O)[C@H](CCCCN)NC(=O)[C@H](CCCCN)NC(=O)[C@H](C)NC(=O)[C@H](CCCCN)NC(=O)[C@@H]1CSSC[C@H](NC(=O)[C@H](CCCNC(=N)N)NC(=O)CN)C(=O)N[C@@H](CC(N)=O)C(=O)N[C@@H](CC(C)C)C(=O)N[C@@H](CC(C)C)C(=O)N1)C(C)C)C(=O)N[C@@H](CCCCN)C(=O)N[C@@H](CCC(=O)O)C(=O)N[C@H](C(=O)N[C@@H](CCCCN)C(=O)N[C@@H](CC(N)=O)C(=O)N[C@H](C(=O)N[C@H](C(=O)N[C@@H](Cc1ccccc1)C(=O)N[C@@H](CC(N)=O)C(=O)N[C@@H](CCCNC(=N)N)C(=O)O)C(C)C)C(C)C)[C@@H](C)CC |  | BALB/c mouse, CLP sepsis, lung | intraperitoneal, 5 mg/kg, 12 h post-surgery |  | MPO activity | decreased
CCCC[C@H](NC(=O)[C@@H](NC(=O)[C@H](CC(=O)O)NC(=O)[C@H](CCC(N)=O)NC(=O)[C@H](CC(C)C)NC(=O)[C@H](CC(C)C)NC(=O)[C@H](CCCN)NC(=O)[C@H](CCCNC(=N)N)NC(=O)[C@H](C)NC(=O)[C@H](CO)NC(=O)[C@H](CC(C)C)NC(=O)[C@H](CCC(N)=O)NC(=O)[C@H](CC)NC(=O)[C@H](CC(C)C)NC(=O)[C@@H](NC(=O)[C@H](CCCN)NC(=O)[C@H](CCCNC(=N)N)NC(=O)[C@H](Cc1ccc(O)cc1)NC(=O)[C@H](CO)NC(=O)[C@H](CCC(N)=O)NC(=O)[C@@H](NC(=O)[C@H](Cc1ccccc1)NC(=O)[C@@H](NC(=O)[C@H](C)NC(=O)[C@H](CC(=O)O)NC(=O)[C@@H](C)NC(=O)[C@H](Cc1ccc(O)cc1)NC)[C@@H](C)CC)[C@@H](C)O)C(C)C)[C@@H](C)CC)C(=O)N[C@@H](CC(=O)O)C(=O)N[C@@H](CCCNC(=N)N)C(=O)NC | GH release | rat, male, serum | intravenous, 1 µg/kg, 5 min | baseline: reference GHRH agonist JI-38 | relative potency | 1.19
NCCCC[C@H](N)C(=O)N1CCC[C@H]1C(=O)NCC(=O)NCC(=O)O | diketopiperazine formation, Arrhenius plot, ESI-MS | 1-propanol | 70, 80, 90 °C, 0.5% acetic acid |  | activation energy | 23.7 ± 6.45 kcal/mol
CCCOC(=O)Cc1c(C)n(C(=O)c2ccc(Cl)cc2)c2ccc(OC)cc12 | hot plate test | BALB/c mice | 75 mg/kg, 120 min |  | latency of nociceptive response | 15.2 ± 1.31 s
Cc1cc(O)c(C=O)c2c1C(=O)Oc1c(CO)c(O)c3c(c1O2)C(O)OC3=O (stereo not shown) |  | rat, male, streptozotocin-induced diabetes, cauda epididymis | 10 mg/kg, 9 weeks |  | sperm motility | 80 ± 5.25%
[2H]C([2H])([2H])C(c1cc2nnc(-c3cc(F)ccc3F)n2nc1OCc1ncnn1C)(C([2H])([2H])[2H])C([2H])([2H])[2H] |  | amygdala-kindled Wistar rats, amygdala | oral, 100 mg/kg, 2 h before stimulation | baseline: baseline | afterdischarge duration change | -78%
C=C(c1cc(F)c(C(=O)O)c(F)c1)c1cc2c(cc1C)C(C)(C)CCC2(C)C | RNA sequencing, measured: Cav1 mRNA | rat, brain | dose not given, 24 h, single dose | baseline: vehicle | log2 fold change | 0.18
CCCCSc1nnc(-c2ccc(N)cc2)o1 |  |  | 2 × IC50 |  | H2O2 scavenging | 81.9%
CCCC[C@H](NC(=O)[C@@H](NC(=O)[C@H](CC(=O)O)NC(=O)[C@H](CCC(N)=O)NC(=O)[C@H](CC(C)C)NC(=O)[C@H](CC(C)C)NC(=O)[C@H](CCCN)NC(=O)[C@H](CCCNC(=N)N)NC(=O)[C@H](C)NC(=O)[C@H](CO)NC(=O)[C@H](CC(C)C)NC(=O)[C@H](CCC(N)=O)NC(=O)[C@H](CC)NC(=O)[C@H](CC(C)C)NC(=O)[C@@H](NC(=O)[C@H](CCCN)NC(=O)[C@H](CCCNC(=N)N)NC(=O)[C@H](Cc1ccc(O)cc1)NC(=O)[C@H](CO)NC(=O)[C@H](CCC(N)=O)NC(=O)[C@@H](NC(=O)[C@H](Cc1ccccc1)NC(=O)[C@@H](NC(=O)[C@H](C)NC(=O)[C@H](CC(=O)O)NC(=O)[C@H](C)NC(=O)CCc1ccc(O)cc1)[C@@H](C)CC)[C@@H](C)O)C(C)C)[C@@H](C)CC)C(=O)N[C@@H](CC(=O)O)C(=O)N[C@@H](CCCNC(=N)N)C(=O)NCCCCC(N)=O | GH release | male rat, serum | subcutaneous, dose not given, 15 min | baseline: GHRH(1-29)NH2 | relative potency | 73.5

Repeated from above:
SMILES | test | test system | conditions | scale | endpoint | result
C=C(c1cc(F)c(C(=O)O)c(F)c1)c1cc2c(cc1C)C(C)(C)CCC2(C)C | RNA sequencing, measured: Cav1 mRNA | rat, brain | dose not given, 24 h, single dose | baseline: vehicle | log2 fold change | 0.18
